Published values of several laboratories.
Each line is one published result; not all experiments were run side by side. “And” joins repeats or separate records; there may be more than shown. ± marks the error that the study gave. No end group written: not given here.
B1: bicyclic; chain AATCHCRRSCYSTEYSYGTCTVMGINHRFCCL (also: bicyclic or more (positions not given here))
Sequence of UniProt Q64663 (whole entry, unmodified, looked up): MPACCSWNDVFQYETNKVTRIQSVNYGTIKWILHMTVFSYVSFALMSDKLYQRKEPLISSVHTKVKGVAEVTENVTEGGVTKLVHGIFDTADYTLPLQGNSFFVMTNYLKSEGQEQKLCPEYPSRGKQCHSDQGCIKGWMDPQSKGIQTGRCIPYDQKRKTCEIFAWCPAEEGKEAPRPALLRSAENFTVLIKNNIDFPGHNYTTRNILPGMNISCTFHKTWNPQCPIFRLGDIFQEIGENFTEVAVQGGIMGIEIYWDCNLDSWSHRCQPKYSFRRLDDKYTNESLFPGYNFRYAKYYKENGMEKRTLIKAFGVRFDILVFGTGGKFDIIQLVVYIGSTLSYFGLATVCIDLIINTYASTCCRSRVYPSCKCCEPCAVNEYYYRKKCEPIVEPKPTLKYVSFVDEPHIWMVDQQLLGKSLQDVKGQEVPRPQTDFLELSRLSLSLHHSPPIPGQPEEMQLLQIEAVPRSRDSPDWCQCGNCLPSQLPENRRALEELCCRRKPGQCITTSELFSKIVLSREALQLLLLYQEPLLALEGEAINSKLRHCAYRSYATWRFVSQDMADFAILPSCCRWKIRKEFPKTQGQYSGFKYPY

regorafenib N-β-glucuronide  Cmax (wild-type mouse, plasma; oral, 10 mg/kg of regorafenib, single dose): 35.5 ± 5.97 ng/mL
BzATP  normalized current (P2X purinoceptor 7 (P2rx7, Rattus norvegicus, UniProt Q64663, R125A); ion current, agonist, two-electrode voltage clamp; Xenopus oocytes; 33.33 µM): 1 and 0.993 and 0.967
caspofungin  potassium (adult ICU patients, mITT, serum; dose not given, day 30): 4.1 mmol/L
11-deoxycorticosterone  rate constant (stopped-flow global kinetic fitting; 4-state closed model (best), 40-fold adrenodoxin excess, together with: substrate binding k-3): 242 ± 0.468 min⁻¹
B1  sedimentation coefficient s20,w (sedimentation velocity ultracentrifugation; 10 mM Tris-maleate; 50 µM, pH 6.4, 20 °C): 0.762 S
FNA / CGLSGLGVA-NH2 ([18F]FNA-labelled, C-amide)  tissue uptake (gamma counting; peptide, glioblastoma mice, brown adipose tissue; 60 min): 0.25 %ID/g
colistin  MIC (Pseudomonas aeruginosa; clinical isolate RKI 470/12): ≤ 1 µg/mL
Rilpivirine docusate  kinetic solubility (lipid vehicles; up to): ~500 mg/g
Peginesatide  phosphorylation level (UT7/EPO; tyrosine phosphorylation, LC-MS/MS phosphoproteomics, GluC, refers to: TNFRSF19 tyrosine 378; 10 nM, 15 min, together with: 10 U/mL EPO; relative to: vehicle): 2.5 fold
Teicoplanin  ultrafiltration recovery (ultrafiltration; human serum; time not given, low QC): 94.6%
LVHYTHCGSLGV  body weight (Epstein-Barr virus; peptide, EBV-infected humanized B-NDG mice; 20 mg/kg, day 14): 24.4 g and 22.3 g and 22.8 g
Polymyxin B  log2 fold change (untargeted LC-MS metabolomics, refers to: L-lysine; Sprague-Dawley rat, right cerebral cortex; intracerebroventricular, 0.75 mg/kg, 1 h; relative to: NaCl control): -1.4

Some of these lines once more:
FNA / CGLSGLGVA-NH2 ([18F]FNA-labelled, C-amide)  tissue uptake (gamma counting; peptide, glioblastoma mice, brown adipose tissue; 60 min): 0.25 %ID/g
